Measured values pooled from the literature.

With `CC(=O)N1CCCC[C@H]1C(=O)NC(C)(C)C(=O)N1CCCC[C@H]1C(=O)NC(C)(C)C(=O)NC(C)(C)C(=O)N[C@@H](CC(C)C)C(=O)NCCC(=O)NCC(=O)NC(C)(C)C(=O)NC(C)(C)C(=O)N1CCCC[C@H]1C(=O)NC(C)(C)C(=O)NCC(=O)N[C@@H](CC(C)C)C(=O)NC(C)(C)C(=O)N[C@@H](CC(C)C)C[N+]1=C2CCCN2CCC1` the GI50 was 646 nM (39 cancer cell lines; 48 h, mean over panel).
With `CCCc1cc(OC)c2c(c1)OCO2` the GI50 was greater than 250000 nM (HCT-116; cell growth or viability; 72 h).
For `CN1C(=O)C2(Cc3ccc(CC45SSC(CO)(C(=O)N4C)N(C)C5=O)cc3)SSC1(CO)C(=O)N2C` (racemic), the GI50 was 520 nM (MCF7; cell growth or viability, resazurin).
With `COc1cc(/C=C(\C#N)C(=O)Nc2nnc(C(F)(F)F)s2)ccc1OC(=O)N1CCN(C(=O)CCCC(=O)NCCCC[C@@H]2NC(=O)[C@@H](Cc3ccc(O)cc3)NC(=O)[C@H](CC(=O)O)NC(=O)CNC(=O)[C@H](CCCNC(=N)N)NC2=O)CC1` the GI50 was 76000 nM (HCC827; cell growth or viability, MTT).
`COc1cc(C)c(OC)c2c1OCO2` gave a GI50 of greater than 250000 nM (HCT-116; cell growth or viability, MTT; 72 h).
`Cc1cccc(O)c1C(=O)OCC1(O)C(Nc2ccc3c(c2)Cc2ccccc2-3)C(N)C(NC(=O)N(C)C)(C(C)O)C1(C)O` (centres unmarked) gave a GI50 of 880 nM (M14; cell growth or viability, SRB).
With `CCC[P+](c1ccccc1)(c1ccccc1)c1ccccc1` the GI50 was 9530 nM (HCT-116; cell growth or viability; 72 h).
With `CC(=O)N1CCCC[C@H]1C(=O)NC(C)(C)C(=O)N1CCCC[C@H]1C(=O)NC(C)(C)C(=O)NC(C)(C)C(=O)N[C@@H](CC(C)C)C(=O)N[C@@H](C)CC(=O)NCC(=O)NC(C)(C)C(=O)NC(C)(C)C(=O)N1CCCC[C@H]1C(=O)NC(C)(C)C(=O)NCC(=O)N[C@@H](CC(C)C)C(=O)NC(C)(C)C(=O)N[C@@H](CC(C)C)C[N+]1=C2CCCN2CCC1` the GI50 was 155 nM (39 cancer cell lines; 48 h, mean over panel).
For `COC(C(=O)C(C)=O)C1Cc2cc3cc(OC4CC(OC5CC(O)C(O)C(C)O5)C(O)C(C)O4)c(C)c(O)c3c(O)c2C(=O)C1OC1CC(OC2CC(O)C(O)C(C)O2)C(O)C(C)O1` (centres unmarked), the GI50 was greater than 10000 nM (NCI/ADR-RES; cell growth or viability).
With `CC(=O)N1CCCC[C@H]1C(=O)NC(C)(C)C(=O)N1CCCC[C@H]1C(=O)NC(C)(C)C(=O)NC(C)(C)C(=O)N[C@@H](CC(C)C)C(=O)NC[C@H](C)C(=O)NCC(=O)NC(C)(C)C(=O)NC(C)(C)C(=O)N1CCCC[C@H]1C(=O)NC(C)(C)C(=O)NCC(=O)N[C@@H](CC(C)C)C(=O)NC(C)(C)C(=O)N[C@@H](CC(C)C)C[N+]1=C2CCCN2CCC1` the GI50 was 219 nM (39 cancer cell lines; 48 h, mean over panel).
For `CC1CN1c1cc(O)c2nc(N)sc2c1` (centres unmarked), the GI50 was greater than 6000 nM (MOLM-13; cell growth or viability, MTT; 7 days).

Excerpt of the above:
For `CC1CN1c1cc(O)c2nc(N)sc2c1` (centres unmarked), the GI50 was greater than 6000 nM (MOLM-13; cell growth or viability, MTT; 7 days).
